{"data": "Results gathered from unrelated publications", "note": "Parts stem from different laboratories: compare values within a part only."}
{"data": "Block 1", "target": "Interferon regulatory factor 3, full length, phosphomimetic (IRF3, Homo sapiens, UniProt Q14653, residues 1-427, S386D/S396D/S398D/S402D/T404D/S405D)", "technique": "protein-binding microarray", "molecule type": "double-stranded DNA, one strand shown", "medium": "in vitro", "concentration": "2540 nM top", "setting": "60-bp whole probe", "together with": "salmon DNA 0.4 mg/ml", "baseline": "random background probes", "direction": "higher = stronger binding", "all sequences stand within": "GCCTAGCAC … GTCTTGATTCGCTTGACGCTGCTG", "Construct (chain)": "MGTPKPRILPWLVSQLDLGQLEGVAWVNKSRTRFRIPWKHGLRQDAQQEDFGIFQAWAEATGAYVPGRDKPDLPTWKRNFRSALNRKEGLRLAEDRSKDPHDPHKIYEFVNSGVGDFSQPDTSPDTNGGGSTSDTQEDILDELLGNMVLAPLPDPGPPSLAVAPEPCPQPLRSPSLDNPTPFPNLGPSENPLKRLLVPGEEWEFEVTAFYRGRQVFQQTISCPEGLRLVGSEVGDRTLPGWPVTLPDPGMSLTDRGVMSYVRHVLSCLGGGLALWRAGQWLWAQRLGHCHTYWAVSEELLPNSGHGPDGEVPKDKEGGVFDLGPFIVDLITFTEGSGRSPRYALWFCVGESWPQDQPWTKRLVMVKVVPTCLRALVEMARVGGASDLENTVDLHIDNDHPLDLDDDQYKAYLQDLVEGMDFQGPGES"}
{"Oligonucleotide": "TCATCATTGCATATAGAACTGTGCTAG", "fitted relative affinity": "0.175 z-score"}
{"Oligonucleotide": "TTAGGTTTCTACACTGGGTTAGTGCTA", "fitted relative affinity": "0.948 z-score"}
{"Oligonucleotide": "TCAATTTTTACCCTCCTACTGTGCTAG", "fitted relative affinity": "0.654 z-score"}
{"Oligonucleotide": "GACGGTTTCAGGTATCGGGACGTGCTA", "fitted relative affinity": "3.14 z-score"}
{"Oligonucleotide": "TCAGAACTGGGGTTTCGATTAGTGCTA", "fitted relative affinity": "1.54 z-score"}
{"Oligonucleotide": "GACGGTATCGATACTGGGGACGTGCTA", "fitted relative affinity": "2.48 z-score"}
{"Oligonucleotide": "TCACCACTCATGCCTCTTACTGTGCTA", "fitted relative affinity": "-0.0523 z-score"}
{"Oligonucleotide": "GACGGTATCGGTCTTGGGACGTGCTAG", "fitted relative affinity": "4.77 z-score"}
{"Oligonucleotide": "GACGGGTTCCTTTCCCTGACGTGCTAG", "fitted relative affinity": "4.31 z-score"}
{"Oligonucleotide": "GACGATTTCAGTTTCGAGCCGTGCTAG", "fitted relative affinity": "3.58 z-score"}
{"Oligonucleotide": "TTAGGTATCGGACTCGGTTAGTGCTAG", "fitted relative affinity": "2.8 z-score"}
{"Oligonucleotide": "TTAGATTTCAGTTCCCATTAGTGCTAG", "fitted relative affinity": "3.8 z-score"}
{"Oligonucleotide": "GACGGACTGGGACTGGGGATGTGCTAG", "fitted relative affinity": "-0.985 z-score"}
{"Oligonucleotide": "GACGATCTCAGTTTCCAGACGTGCTAG", "fitted relative affinity": "3.52 z-score"}
{"Oligonucleotide": "TTAGGCATCGGACTGGGTTAGTGCTAG", "fitted relative affinity": "-0.926 z-score"}
{"Oligonucleotide": "TTAGGTTTCCTTGTCCTTTAGTGCTAG", "fitted relative affinity": "5.11 z-score"}
{"Oligonucleotide": "GGACGAGCGACGGTGACACTGTGCTAG", "fitted relative affinity": "-1 z-score"}
{"Oligonucleotide": "TTGGTTTTCTCTATTGCTTTGTGCTAG", "fitted relative affinity": "0.907 z-score"}
{"Oligonucleotide": "CGCTTTTTTTTTTTTTTTTTGTGCTAG", "fitted relative affinity": "0.875 z-score"}
{"Oligonucleotide": "TAAATTTTGATGGAGAGTGCGTGCTAG", "fitted relative affinity": "-0.427 z-score"}
{"data": "Block 2", "target": "RNA binding protein fox-1 homolog 2, RRM domain, GST-SBP tag (RBFOX2, Homo sapiens, UniProt O43251-10, residues 100-194)", "technique": "RNA Bind-n-Seq", "molecule type": "RNA", "medium": "in vitro", "concentration": "365 nM", "setting": "natural RNA segment, single round, ends assumed", "baseline": "no-protein control", "direction": "higher = stronger binding", "all sequences stand within": "GGGAGUUCUACAGUCCGACGAUC … UGGAAUUCUCGGGUGCCAA", "Residues (chain)": "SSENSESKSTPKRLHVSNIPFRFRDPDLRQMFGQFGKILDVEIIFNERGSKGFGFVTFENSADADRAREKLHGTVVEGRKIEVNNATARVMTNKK"}
{"Oligonucleotide": "GAAUGUCAUUGUUUUUAAAACUGUUUUAUAUCUUAAGAGUGCCUUAUUAAAGUAUAGAUGUAUGUCUUAAAAUGUGGGUGAUAGGAAUUUUAAAGAUUUAUAUAAUGCAU", "RBNS enrichment (R)": 1.54}
{"Oligonucleotide": "CUGCUAGGCUGACGACUAAGCUGCUGGCCCUGCAGAGGGUCCAGUGUACACUCCACUCUGCUACAGCAGCAUGGUGAGGACCCACCACAGGAGCUGUGCUCCUCAGAGGG", "RBNS enrichment (R)": 0.202}
{"Oligonucleotide": "AUUGGAAAUUUCACGUCAUAGGAAGUUAGCCUUUAUCUACCAACUUUCAAGAACUUGUUUAAUAAAGCGAAAAACUCAACCAAAUGGUACAAAACCACAGUGUACCAUUA", "RBNS enrichment (R)": 0.303}
{"Oligonucleotide": "AGCCCCACCAUGCAACUUCCUUUGACUUUCUGUGUACCACUGGGAUAGAGGAAUCAAGAGGACAAUCUAGCUCUCCAUACUUUGAACAACCAAAUGUGCAUUGAAUACUC", "RBNS enrichment (R)": 0.562}
{"Oligonucleotide": "GUCUUCCCUGCUGUAGAGAUGUUCCUGUGCACCUGAGGAGCCUCCUGCCUGCCGUCCUUGCGUCCACCAUCCCUCUGCCAGGAUGCUGCUCUUGCACCAAGUGCCUUCUG", "RBNS enrichment (R)": 2.13}
{"Oligonucleotide": "GACUCUUGUGGAGUGACAGUUCCAAGCUGAACCAUAAAUCACUGAUGCACAAAACACUGCUAGAAGGCUCACCUCUCAAAACACGACUCUUUGCAUCACUAUUAAAGAGC", "RBNS enrichment (R)": 0.817}
{"Oligonucleotide": "UGGGGGCAGGAGGUAAAGAAACAUCUUAGAGAAAUCCACUUUACUAUCAAGUUCACAACCAGUUUUAUAUUCGAAACGCUUGGAGUCAGCCAGCCAGCCACAUGCAGCUU", "RBNS enrichment (R)": 0.514}
{"Oligonucleotide": "CGUUUGUCGAAGCCUCCUCUGAAUGGCUUUGUGAAAUCAAGAUGUUUUAAUCACAUUCACUUUACUUGAAAUUAUGUUGUUACACAACAAAUUGUGGGGCCUUCAAAUUG", "RBNS enrichment (R)": 0.275}
{"Oligonucleotide": "CCUGUAUCUUCAUUUACUAUUAGUGAAGAGAUCUCUGUCCUGGAGGUUAUUCUAAACUUUCUUUGUAACUAUUGUUAUAGACAAUGGUUUCCAAACCAGUGGUUUCUAUG", "RBNS enrichment (R)": 0.266}
{"Oligonucleotide": "UGGCUGAUAGCAACUGACUUAGACCUGUACCUGGAUUUCACUUGAAUUUAUAAAAUGUGUAUUGCUCAAAAAAAAAAAAAAGGUUUGCAAAUAUUUGCACAUAAGAUCUU", "RBNS enrichment (R)": 0.953}
{"Oligonucleotide": "CCAAGGAAUACUAUAUAAAGUAAUGAGACUGGUUUAAAGUAACAUGCCAGAACUUACGCAUCCAAUGUGGGUUGUCACUUGUUAUUCCCAAGUACUAUUAUUCCAUACUA", "RBNS enrichment (R)": 0.44}
{"Oligonucleotide": "UUUAAAAUUUAACAGCAAUCAGCUAACAGGCAAAUUAAGAUUUUUACUUCUGGCUGGUGACAGUAAAGCUGGAAAAUUAAUUUCAGGGUUUUUUGAGGCUUUUGACACAG", "RBNS enrichment (R)": 0.407}
{"data": "Block 3", "target": "Ras GTPase-activating protein-binding protein 1, full length (G3BP1, Homo sapiens, UniProt Q13283)", "technique": "RNA Bind-n-Seq", "molecule type": "RNA", "medium": "in vitro", "concentration": "200 nM", "setting": "whole 134-nt RNA, ends assumed", "together with": "150 mM KCl", "baseline": "input library", "direction": "higher = stronger binding", "all sequences stand within": "GGGAGUUCUACAGUCCGACGAUC … UGGAAUUCUCGGGUGUCAAGG", "UniProt Q13283, sequence (whole entry, looked up)": "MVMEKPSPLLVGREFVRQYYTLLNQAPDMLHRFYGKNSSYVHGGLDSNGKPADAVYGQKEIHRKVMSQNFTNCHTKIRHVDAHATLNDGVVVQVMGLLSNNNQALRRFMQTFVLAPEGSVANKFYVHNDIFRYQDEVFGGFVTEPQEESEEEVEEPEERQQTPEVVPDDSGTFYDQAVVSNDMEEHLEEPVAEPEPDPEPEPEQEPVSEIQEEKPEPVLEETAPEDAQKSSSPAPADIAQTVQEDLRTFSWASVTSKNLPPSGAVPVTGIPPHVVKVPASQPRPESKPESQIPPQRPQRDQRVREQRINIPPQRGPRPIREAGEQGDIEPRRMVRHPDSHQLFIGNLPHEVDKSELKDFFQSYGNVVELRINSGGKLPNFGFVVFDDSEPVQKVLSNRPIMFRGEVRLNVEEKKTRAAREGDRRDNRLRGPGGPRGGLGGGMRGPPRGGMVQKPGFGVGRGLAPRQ"}
{"Oligonucleotide": "UGGCCCUGGUGGCAUGCGGGGAGGAAGAGGUGGCCUCAUGGAUCGUGGUGGUCCCGGUGGAAUGUUCAGAGGGGGCCGUGGUGGAGACAG", "log2 enrichment": -0.0794}
{"Oligonucleotide": "CCUGUGCUACACAUCGUAUGUACCGAAUCGGGUUUUUUUGGGUUUUUGGGUUUUUUUGGGAAAGUAUUAUGUUACGCCGUUCGGAUCUGC", "log2 enrichment": -0.758}
{"Oligonucleotide": "UUCCAGGCUCAAGCACGGACAUCAGUGAGGACUGGGAGAAAGACUUUGACUUGGACAUGACUGAAGAGGAGGUGCAGAUGGCACUUUCCA", "log2 enrichment": 0.018}
{"Oligonucleotide": "ACCAUGCAGGUGGGCAAAAUUGGGAAGUGGGGCAAGGGGGGGAUAGGGAGGGGGGUAACACUUUGGGAACAGGUGGUCCCAGGUCGUUUC", "log2 enrichment": 1.08}
{"Oligonucleotide": "AAGUCCUGUGCUACACAUCGUAUGUACCGAAUCGGGUUUUGGGGUUUUGGGUUUUGGAAAGUAUUAUGUUACGCCGUUCGGAUCUGCACU", "log2 enrichment": -0.711}
{"Oligonucleotide": "AAAUGGUAGUGUGCGGAGUUUUUUUUUCUUCCUUCUUUUAAAAAUGGUUGUUUAAGACUUUAACAAUGGGAACCCCUUGUGAGCAUGCUC", "log2 enrichment": -1.33}
{"Oligonucleotide": "UUCCCUCUGUUUUAUUUUUCCCCCGUGUGUCCCUACUAUGGUCAGAAAGCCUGUUGUGUCCACCAUCUCCAAAGGAGGUUACCUGCAGGG", "log2 enrichment": 0.0407}
{"Oligonucleotide": "UGGCCCUGGUGGCAUGCGGGGAGGAAGAGGUGGCCUCAUGGAUCGUGGUGGUCCCGCUGGAAUGUUCAGAGGUGGCCGUGGUGGAGACAG", "log2 enrichment": -0.2}
{"Oligonucleotide": "UGCAGACGGGGAACCUGCUGAACUGGGGCCGCCUGCGGAAGAAGUGCCCGUCCACGCACAGCGAGGAGGUGAGCGUGGCGACACUCGCCG", "log2 enrichment": -2.17}
{"Oligonucleotide": "UGGGAGGUGGAUUUUGUUUAUUUUGUUAGCUCAUUUCCAGGGGUGGGAAUUUUUUUUUAAUAUGUGUCAUGAAUAAAGUUGUUUUUGAAA", "log2 enrichment": 0.149}
{"Oligonucleotide": "CUCAAGUCCUGUGCUACACAUCGUAUGUACCGAAUCGGCCGGGGCCGGCCGGGGAAAGUAUUAUGUUACGCCGUUCGGAUCUGCACUUCC", "log2 enrichment": -0.628}
{"Oligonucleotide": "UCCUGUGCUACACAUCGUAUGUACCGAAUCGGGUUUUUUUGGGAAAAAAAGGGUUUGGGAAAGUAUUAUGUUACGCCGUUCGGAUCUGCA", "log2 enrichment": -0.593}
{"Oligonucleotide": "CUCAAGUCCUGUGCUACACAUCGUAUGUACCGAAUCGGAAAAAGGAGGUUUGGAAAGUAUUAUGUUACGCCGUUCGGAUCUGCACUUCCA", "log2 enrichment": -0.704}
{"Oligonucleotide": "GUCCUGUGCUACACAUCGUAUGUACCGAAUCGGGUUUUUGGUUUUUGGGUUUUUGGGGAAAGUAUUAUGUUACGCCGUUCGGAUCUGCAC", "log2 enrichment": -0.692}
{"data": "Block 4", "target": "Sal-like protein 4, full length isoform B (SALL4, Homo sapiens, UniProt Q9UJQ4-2, residues 1-616)", "technique": "universal PBM", "molecule type": "double-stranded DNA, one strand shown", "medium": "in vitro", "concentration": "not given", "setting": "8-mer, flanks averaged, mean of replicates", "direction": "higher = stronger binding"}
{"Oligonucleotide": "CAGCTAGA", "E-score": -0.179}
{"Oligonucleotide": "CGCTTGGC", "E-score": -0.203}
{"Oligonucleotide": "AATAGCGT", "E-score": 0.178}
{"Oligonucleotide": "GCACCGGA", "E-score": -0.334}
{"Oligonucleotide": "CGAAACCA", "E-score": 0.14}
{"Oligonucleotide": "GCATTGAA", "E-score": 0.0837}
{"Oligonucleotide": "CCGATCAA", "E-score": -0.0542}
{"Oligonucleotide": "CCACGCCG", "E-score": -0.287}
{"Oligonucleotide": "GTAAGAAC", "E-score": 0.0341}
{"Oligonucleotide": "CAGGCGCC", "E-score": -0.263}
{"Oligonucleotide": "TCGAGCGA", "E-score": -0.104}
{"Oligonucleotide": "CGTCCGAA", "E-score": -0.224}
{"Oligonucleotide": "CATAGATC", "E-score": 0.0684}
{"Oligonucleotide": "CACAATGA", "E-score": 0.0728}
{"Oligonucleotide": "AACAAACA", "E-score": 0.188}
{"Oligonucleotide": "CACTTTAA", "E-score": 0.147}
{"Oligonucleotide": "GCCTTCCA", "E-score": 0.0381}
{"Oligonucleotide": "GAGCGGCA", "E-score": -0.231}
{"Oligonucleotide": "CTGGAGCC", "E-score": -0.265}
{"Oligonucleotide": "ACGGATGA", "E-score": -0.0575}
{"Oligonucleotide": "GGATTTTA", "E-score": 0.151}
{"Oligonucleotide": "CCTTATGA", "E-score": 0.127}
{"Oligonucleotide": "AGTTTGAC", "E-score": 0.0241}
{"Oligonucleotide": "ATACATCG", "E-score": 0.133}
